Published values gathered from unrelated publications.
Each numbered part is a random draw from the data of one study; scales do not carry over between parts. Changes are numbered by the printed parent chain.

Set 1
Target: Interferon regulatory factor 3, full length, phosphomimetic (IRF3, Homo sapiens, UniProt Q14653, residues 1-427, S386D/S396D/S398D/S402D/T404D/S405D)
Technique: protein-binding microarray
Form: double-stranded DNA, one strand shown
Medium: in vitro
Tested at: 2540 nM top
Notes: 60-bp whole probe
With: salmon DNA 0.4 mg/ml
Reference: random background probes
Direction: higher = stronger binding
All sequences stand within: GCCTAGCAC … GTCTTGATTCGCTTGACGCTGCTG
Construct (chain): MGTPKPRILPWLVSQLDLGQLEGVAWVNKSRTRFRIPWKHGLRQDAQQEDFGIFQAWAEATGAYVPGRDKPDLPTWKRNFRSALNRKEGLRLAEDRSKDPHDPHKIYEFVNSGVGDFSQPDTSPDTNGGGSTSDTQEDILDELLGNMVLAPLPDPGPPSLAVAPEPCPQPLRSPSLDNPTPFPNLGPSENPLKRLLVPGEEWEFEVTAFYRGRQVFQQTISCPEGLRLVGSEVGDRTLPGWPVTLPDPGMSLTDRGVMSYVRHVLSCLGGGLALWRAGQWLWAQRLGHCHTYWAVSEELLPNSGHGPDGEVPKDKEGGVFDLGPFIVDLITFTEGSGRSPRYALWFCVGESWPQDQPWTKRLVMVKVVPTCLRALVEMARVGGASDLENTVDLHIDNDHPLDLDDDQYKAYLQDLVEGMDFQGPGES
Sequence	fitted relative affinity
TTTCTGATCCATTTTGGTTTGTGCTAG	5.48 z-score
TTTTTTTCATATATATATGAGTGCTAG	2.1 z-score
GTGTATATGTGATTAAAATAGTGCTAG	-0.0984 z-score
GACGTTATCGGGACTGGGGACGTGCTA	0.337 z-score
TTAGGGTTCGGTTTCGGTTAGTGCTAG	6.48 z-score
GACGAACTGGGTCTCGAGACGTGCTAG	-0.346 z-score
CTGTGTGTCAGGTTTACTAGGGTGCTA	0.991 z-score
TTAGATTTCAGTTCCGCTTAGTGCTAG	2.98 z-score
TCATAACTCAAGATTCCTACTGTGCTA	0.705 z-score
TTAGGTTTCCTACTGCTTTAGTGCTAG	4.66 z-score
TTAGCTTTCAGTTTCGATTAGTGCTAG	6.1 z-score
GTAGGTATCCTTTTCCTTTAGTGCTAG	8.47 z-score
TCATCTCGGAGATCTCGAACTGTGCTA	0.553 z-score
TTAGGGTTCCTTTCCCTTTAGTGCTAG	6.2 z-score
GACGGTCGCCTTCTCCTGACGTGCTAG	1.59 z-score
CACGGTATCGACTATCGGGACGTGCTA	0.401 z-score
TCAAATTTTTTTCTAAGACTGTGCTAG	0.0769 z-score
TTAGGCTTCGGGACTGGGTTAGTGCTA	-1 z-score
GAAGGACTGGGGTATCGGGACGTGCTA	-0.753 z-score

Set 2
Target: Centromere-binding protein 1, full length, His-tagged (CBF1, Saccharomyces cerevisiae, UniProt P17106, residues 1-351)
Sequence of UniProt P17106 (whole entry, looked up): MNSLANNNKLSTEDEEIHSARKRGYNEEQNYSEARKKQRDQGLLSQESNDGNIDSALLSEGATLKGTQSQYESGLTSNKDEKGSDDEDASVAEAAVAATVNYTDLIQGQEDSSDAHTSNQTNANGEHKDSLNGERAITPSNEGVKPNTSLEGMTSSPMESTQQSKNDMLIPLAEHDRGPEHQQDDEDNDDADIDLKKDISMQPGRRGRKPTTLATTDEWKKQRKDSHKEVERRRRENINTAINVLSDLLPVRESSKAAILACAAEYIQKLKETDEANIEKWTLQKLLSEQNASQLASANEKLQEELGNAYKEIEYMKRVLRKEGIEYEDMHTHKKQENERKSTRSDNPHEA
Technique: competition protein-binding microarray
Form: double-stranded DNA, one strand shown
Medium: in vitro
Tested at: 2 µM
Notes: whole 60-bp probe, lowest competitor level
With: Pho4 competitor, 0.05 µM
Direction: higher = stronger binding
All sequences stand within: … GTCTTGATTCGCTTGACGCTGCTG
Sequence	fluorescence intensity [a.u.]
GCTCCGTTATGTTCACTCGTGTTTCTGATACTGGAT	96.7
ATGCGATTCGGCCATCACGGGAGAGTCGACTAGTTC	98.8
TGCGCAACAACTTGTCACTATACTTTATGTCTAGAA	67.8
AGCAAGTTTTACCATCACCTGCACAACCACAACAGC	170
CTTCTGTAAATTTGGCCGGTGGGTGGACGCGCCCCG	59.2
CGAACGTAGCTTCGTCACATGCTATGCTAGCAACTA	696
CGTCCTAGTGATTGTATAGTGGGTGCCATGAGGAAG	90.7
ATTTGAACATTGAATCATGTGTACCTAACATAAAAT	261
CGTCCTAGTGATTGCCTTGTGGGTGCCATGAGGAAG	72.2
GTAGAGCAGGATGATCCCGTGCCAGAACTGGATATC	360
CTAACGAAGGTTTGCAGCGTGGGTGACAAGCCAAGT	66.4
ATGCTGCTAAAGGAACACGTGAGAAATTACATTCTC	2160
CTTCTGTAAATTTGTCACGTCACTTGACGCGCCCCG	175
CTTCGGTAGCCGAGCCTCGTCTGTGTGTGTGGGAAT	54.6
TTATTGGTGGACAGTCAGCTGACAGAAAACTTAGAT	890
GTAGCAGAGAAAATCCACGTTTGGGCCGCGATGGCA	62.5
CTAACGAAGGTTTGGCTTGTGGGTGACAAGCCAAGT	79

Set 3
Target: CCNA1, cyclin fold, Cln2 fusion (human)
Technique: yeast growth competition, sequencing
Medium: yeast
Notes: weak parent motif
Reference: not given
Direction: higher = stronger binding
Starting sequence: CDT1 docking peptide (human); PPARRRLRLSVDE; partner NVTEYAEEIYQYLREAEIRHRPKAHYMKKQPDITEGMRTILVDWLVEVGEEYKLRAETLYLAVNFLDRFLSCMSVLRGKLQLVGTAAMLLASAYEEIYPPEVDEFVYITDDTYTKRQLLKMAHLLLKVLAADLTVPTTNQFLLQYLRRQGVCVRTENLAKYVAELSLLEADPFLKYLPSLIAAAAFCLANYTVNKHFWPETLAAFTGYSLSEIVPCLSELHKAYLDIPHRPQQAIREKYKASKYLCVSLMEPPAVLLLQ
Variant	normalised enrichment score
R6A	0.609
R8A	0.512
E13A	0.606
R5A L7A	0.201
S10A	0.118
L9F	1.07
R5A	0.0498
V11A	0.197
R5K	0.511

Set 4
Target: ABI1, truncated, D143A, DHFR fusion (Arabidopsis thaliana)
Technique: DHFR PCA, deep sequencing
Medium: yeast
Notes: methotrexate growth selection, single substitutions
With: (+)-ABA 2500 µM
Reference: wild-type fitted maximum
Direction: higher = stronger binding
Starting sequence: PYL1, truncated, DHFR fusion (Arabidopsis thaliana); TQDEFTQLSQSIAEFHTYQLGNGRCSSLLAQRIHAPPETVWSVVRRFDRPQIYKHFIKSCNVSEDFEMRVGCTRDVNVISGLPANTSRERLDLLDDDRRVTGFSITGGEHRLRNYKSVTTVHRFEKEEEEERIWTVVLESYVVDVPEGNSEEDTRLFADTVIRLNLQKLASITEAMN; partner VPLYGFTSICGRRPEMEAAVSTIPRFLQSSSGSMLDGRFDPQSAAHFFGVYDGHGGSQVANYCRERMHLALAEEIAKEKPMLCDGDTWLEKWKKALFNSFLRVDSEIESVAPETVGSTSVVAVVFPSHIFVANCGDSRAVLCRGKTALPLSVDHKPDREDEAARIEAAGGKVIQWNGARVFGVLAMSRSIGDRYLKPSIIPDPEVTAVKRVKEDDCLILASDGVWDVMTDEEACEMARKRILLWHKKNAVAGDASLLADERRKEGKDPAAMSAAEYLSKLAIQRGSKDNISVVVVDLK
Variant	relative binding score
W134G	100%
G21E	96.5%
L156N	92%
I33V	97.6%
E14A	82.3%
T120Q	83.9%
S11H	85.2%
D65E	95.2%
Y53P	33.8%
E38D	98.4%
S117C	92.5%
D97K	106%

Excerpt of the above (set 1):
Sequence	fitted relative affinity
TTTTTTTCATATATATATGAGTGCTAG	2.1 z-score
TTAGCTTTCAGTTTCGATTAGTGCTAG	6.1 z-score
TTAGGGTTCCTTTCCCTTTAGTGCTAG	6.2 z-score
TTAGGGTTCGGTTTCGGTTAGTGCTAG	6.48 z-score
TTAGGTTTCCTACTGCTTTAGTGCTAG	4.66 z-score
TCATAACTCAAGATTCCTACTGTGCTA	0.705 z-score
TTTCTGATCCATTTTGGTTTGTGCTAG	5.48 z-score
GTAGGTATCCTTTTCCTTTAGTGCTAG	8.47 z-score
GACGAACTGGGTCTCGAGACGTGCTAG	-0.346 z-score
